Results pooled from the literature.
A part holds a random share of what one study measured. Positions count from the first letter of the parent shown.

Block 1
Target: RING finger protein unkempt homolog, zinc fingers 1-6, GST-SBP tag (UNK, Homo sapiens, UniProt Q9C0B0, residues 30-357)
Technique: RNA Bind-n-Seq
Molecule type: RNA
Medium: in vitro
Concentration: not given
Setting: RNA with constant flanks, human and mouse sites, ends assumed
Relative to: input RNA pool
Reading: higher = stronger binding
All sequences stand within: GGGAGUUCUACAGUCCGACGAUC … CAACAGAGGAUUGAGCAUCA
Target sequence (chain): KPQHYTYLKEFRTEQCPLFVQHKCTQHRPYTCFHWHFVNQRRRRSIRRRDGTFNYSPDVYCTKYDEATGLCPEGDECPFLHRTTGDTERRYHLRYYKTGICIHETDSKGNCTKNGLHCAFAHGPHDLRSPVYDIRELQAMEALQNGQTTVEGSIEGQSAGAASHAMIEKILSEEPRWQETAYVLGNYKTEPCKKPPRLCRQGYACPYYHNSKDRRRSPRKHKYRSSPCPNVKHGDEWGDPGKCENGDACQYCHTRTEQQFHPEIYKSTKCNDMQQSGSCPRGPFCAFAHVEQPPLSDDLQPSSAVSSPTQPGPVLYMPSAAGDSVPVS
Strand	bound/input enrichment [ratio]
AUCUGAAUAAGUUAAAGACAAUUGAUGUUAUAGUCCGUAGCAUGCAGGAUGCUGAGCUGUUGGUCAAAGGUUAUGAGAUCAAGCUGAGUCAAGAGGAAGCAGUGCCAGCAGACCUCUCAG	0.66
CUUAGAGAGCUUGAAGCUAAAGCCUACAAACAAAUUGAGGCCUGUGGUGGGAACCCUUCACUAGUGGCUUUAGUCAAGCACUUAAGUAAGAUGUUCACAGAAGAAAAUAAAUAAUACUAU	0.799
GGCAAAGGUCGAUUUGGAGAAGUUUGGAGAGGAAAGUGGCGGGGAGAAGAAGUUGCUGUUAAGAUAUUCUCCUCUAGAGAAGAACGUUCGUGGUUCCGUGAGGCAGAGAUUUAUCAAACU	0.571
CAGCUCCAGUCCAAUACCUACGACCUCCAGGAGAGCAACGUGGGGUUGAAACUCACAAUUGUGAGCACUGUAGGCUUUGGGGAUCAGAUCAACAAGGAGGACAGCUACAAGCCCAUCGUG	0.0959
GGAGAUAACCAGCCACUUCAUAUUUUUGACAAACUCCAUGUAUCCCCUCUUACUCAAAUAAGACUAAACCCAGUUUACAAAGCAGUGGUGUCUUCUGACAAAUCCGGGAUGAUUGAGUAC	0.296
AGAGAAGACACAUUUUCUAGUGAUGCAGAGAUUAACAAAUCACCUGUCAGCUUUACUGAAGAGCUUCACAGUGAGAGAAAGGACCACACACCCAAGGAUACCACAACAGUCUUCUGUCCA	0.0963
AUUGCUAAUGUCCAGAGCGGGGCCAAUUCGUUGCCUUGCUCAGAAUUGCCCUGUGACCUUUCUUUCAAGAAUACAUAUCCUAAAGAUGAAGCACAUGUCUCAGAUGAAUUCUCCAAAAGU	0.0921
CAGAUCCCUUCCAGCUAAAACCCUUCCCCCUUCCCUCCAUGUGUUUCUCAGUUUCCCGUUUCGUUUGUUGGACUGUUCCACUGCCCCUCCUCCUCACCCUAUCACCCAUGGAUCGUAAUG	1.25
CUCAACCAUCCAAAUGUAAUUAAAUACUAUGCAUCAUUCAUUGAGGAUAAUGAGCUGAACAUAGUUUUGGAGUUAGCAGAUGCUGGUGACCUCUCCAGAAUGAUAAAGCACUUUAAGAAA	0.69
CGCGUUUUGUGUAGAGAAUAAGGAACGUGGAUCUUUUUAUUUUGCAAUCCUGGGCCAGCUAGAAGCCAGGAGCUGAUUGACCUUUUAACUUUUUUCAGUGGCCACAUUUUGGUUAUCGAU	0.97
CAUAUCAGUGACGUGGUGCUGGACAAGGCCAAUAAAACACCACUGCGGCCACUGGAUCCCACUAGACUACAAGGCAUAAAUUGUGGCCCAGACUUCACUCCAUCCUUUGCCAACCUUGGC	0.112

Block 2
Target: CCND2, cyclin fold, Cln2 fusion (human)
Technique: yeast growth competition, sequencing
Medium: yeast
Setting: weak parent motif
Relative to: not given
Reading: higher = stronger binding
Parent: MICAL3 docking peptide (human); LQLRRQLSFSEDS
Change	normalised enrichment score
LQLRRQLSFSEGS [D12G]	0.0337
LQLRRQLDFSEDS [S8D]	0.109
LQLRRQLHFSEDS [S8H]	0.641
LQLRRQLSFSFDS [E11F]	-0.183
LQLRRVLSFSEDS [Q6V]	0.0462
LQLRRQLSFSDDS [E11D]	0.161
LQLRWQLSFSEDS [R5W]	-0.0935
LQLRRQCSFSEDS [L7C]	-0.0942
LQLRRQLSFSVDS [E11V]	0.00159
LQLRRHLSFSEDS [Q6H]	-0.0114
LQLRRQLSFSEHS [D12H]	0.0486
LQLRRQLSFGEDS [S10G]	0.489
LQLRRQLKFSEDS [S8K]	0.361
LQLRRQFSFSEDS [L7F]	-0.212
LCLRRQLSFSEDS [Q2C]	0.462
LQLRRQGSFSEDS [L7G]	0.231
LQDRRQLSFSEDS [L3D]	0.0024
LQLRRKLSFSEDS [Q6K]	0.381
LQLRRQLSFMEDS [S10M]	0.503
LQLRRQLLFSEDS [S8L]	0.166
LQLRRQLSTSEDS [F9T]	0.0964
LQLRRQLTFSEDS [S8T]	0.167
LQLRRQLSESEDS [F9E]	0.152
LQLRRQLCFSEDS [S8C]	0.0714
LQLRRQLSFSSDS [E11S]	0.0683

Block 3
Target: ABI1, truncated, D143A, DHFR fusion (Arabidopsis thaliana)
Technique: DHFR PCA, deep sequencing
Medium: yeast
Setting: methotrexate growth selection, single substitutions
Together with: (+)-ABA 2500 µM
Relative to: wild-type fitted maximum
Reading: higher = stronger binding
Parent: PYL1, truncated, DHFR fusion (Arabidopsis thaliana); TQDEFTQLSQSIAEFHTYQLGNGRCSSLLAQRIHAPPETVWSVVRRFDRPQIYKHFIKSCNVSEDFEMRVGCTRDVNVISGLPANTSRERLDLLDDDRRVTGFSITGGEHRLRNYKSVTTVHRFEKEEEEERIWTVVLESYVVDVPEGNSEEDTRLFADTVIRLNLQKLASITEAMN
Change	relative binding score [%]
A158M	96.1
F15L	95.8
V43H	91.8
V137M	61.2
T119Y	22.3
T173F	93.6
V137L	86.4
R90D	69.9
T160Q	94.6
I52N	95.9
F124W	104
S59A	97.4
R24G	92
P50N	1.28
E152C	93.6
I105Q	8.2
R69Y	93.9
R155C	95.5
R46S	94
V78C	97.2
I79R	93.4
E67D	98.3
V44Q	57.2
S11E	108
G81D	80.6

Block 4
Target: RNA binding protein fox-1 homolog 2, RRM domain, GST-SBP tag (RBFOX2, Homo sapiens, UniProt O43251-10, residues 100-194)
Technique: RNA Bind-n-Seq
Molecule type: RNA
Medium: in vitro
Concentration: 365 nM
Setting: natural RNA segment, single round, ends assumed
Relative to: no-protein control
Reading: higher = stronger binding
All sequences stand within: GGGAGUUCUACAGUCCGACGAUC … UGGAAUUCUCGGGUGCCAA
Construct (chain): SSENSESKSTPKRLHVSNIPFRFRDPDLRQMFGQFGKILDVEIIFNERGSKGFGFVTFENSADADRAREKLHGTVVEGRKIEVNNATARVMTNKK
Strand	RBNS enrichment (R)
UAAGGGGUAGAUGACGUGAAAUUUUGCAAGUCUUAAUUACAGCUGCAGAUGCAUGGGAUUCUGGAUUUUUUUGUUGCUUUUUAGUUUAAUGGGACUUUAAAAGUAAUUGA	2.14
CCCUUCACAUCAAGCUGGCCUUGCCCUCUCCCGGGACAGUGCCUGUUAACCUUCAUGUGACAAAACAAGGAUAUAUUCUUGCUGCUACGACAUGCUUUUGACUCAGUAUG	0.288
CGGCUCCAAGCAUCCCUGGUUACCUGUUCAGCCUGCAAGGCCGAUGUAUAGUGUACCUCAAUUCACACGACAGCGACAGCCAUGCUCCUGCCGUACAUGGACAUCUGUUC	3.32
CCACCCCGCAAGUCACAGGCAUUCCUUUGACAGCCCCCUUCACCGCCCCUCAAAUACAGACAUCUGCUUUCAUGUGGAGACUGUCUCCAGGCCUUAUUGAGACCAGACCC	0.471
CUGGCACUGUUUACAAGUCUGUUAGCUGCAUAAGCUCAAUAAAAAGUUGGUCUGGGCAUUACAUCCCCUCUGGCAGGCCAAUAGCUGCAUCAAGCUGUUGGGAGAAAUGG	0.539
ACCCGGAGCACUUCCUUUGCAGCGGUUGUUCCACAACCCUGGGAGGCAGCAGCUUCUUCGAGAAGGAUGGGGCUCCCUUUUGCCCCGAGUGCUACUUUGAGCGCUUCUCC	0.165
CUUUUCAUUUGGGGGUUUUUGGGGAAAAAAUUUAUUUUUGGUUCCAAAUAGAAAAACAAAACCUAUUUUGAUCUUUAGUGCAAACGAGGGCUAGGGACUUAGCCUCCUCC	0.383
UGCUAUUGGGUUCAGAUGUGUCUAGGGGAACAAAGAAAAAUUCAUUAACAAACAUUAGCUGCUCCACCUAUGUAGAGUAUAUCAUGUGAGGUUGUUGCUUUGAAUAUCAA	0.496
GCGUUUUGCACUACUCUUUCCAUUUAUAUGCUGCAAACAACUACAGUCUUUGAAAUAUGGAAAAUCAGCAGUCUAAAGUUUGUUUUAAAUUCUAAAUUUAAAAAAUCUUC	0.626
UCCCCCUGUUGGUACAUUUGGUUACCUCAUUUUGCCGUUUCAGAUUGUGAAAGCUCACAGGGGUGUUUUUUGGAAUCAUUUGCUGAGUCAUUUUCUCAAAUCAUAUUCCA	0.438
AUUUUGACAAAUUUAGUGUCUUGUGACCAUCACCAAGAUCAACCUGUUUUUAACCCUCCAAAAAAUUCCCUUCUCCUGCCCUCUUUCCCUGGCAACCCUGAUUGAUUAUC	1.55
UAAUUGGUUUAAAAACACAGUAAAUUUACUGGCUUAUAAAGCUGAAAAAGCCUAGGAGUACUGGCAGUGGAUGAACAAUUUCACCAAACAUCCAGCUUUUUUCCUGCCUC	0.298

Block 5
Target: Histone acetyltransferase KAT6A, both winged helices, GST fusion (KAT6A, Homo sapiens, UniProt Q92794, residues 1-181)
Technique: protein binding microarray
Molecule type: double-stranded DNA, one strand shown
Medium: in vitro
Concentration: not given
Setting: 8-mer, flanks averaged, mean of 2 arrays, mostly near background
Relative to: not given
Reading: higher = stronger binding
Construct (chain): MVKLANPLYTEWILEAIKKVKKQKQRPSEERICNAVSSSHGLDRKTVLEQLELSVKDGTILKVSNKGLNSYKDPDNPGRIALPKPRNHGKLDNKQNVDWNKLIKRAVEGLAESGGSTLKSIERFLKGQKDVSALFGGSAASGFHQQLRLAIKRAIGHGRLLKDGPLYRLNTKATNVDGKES
Strand	E-score
AATTGAAG	-0.142
CCGCGAAC	0.264
AGACTGCT	-0.199
CCTGTGGA	-0.246
GATATAAA	-0.113
CGGCTCTC	0.211
CCCCAAGA	-0.184
CTAAGTCA	-0.0755
TCCGCCCA	-0.0662
CTAGAGTA	-0.104
AATTCCAA	-0.171
GTAATTGA	0.0454
ACATATTC	-0.13
GGGAATAC	0.0489
CAATGTGG	-0.0498
GTGCCGTA	0.292
ATCACCCG	0.186
CTTGATTA	-0.15
AAACGTAC	-0.152
GTAGTAAC	-0.0538

Block 6
Target: Sal-like protein 4, full length isoform B (SALL4, Homo sapiens, UniProt Q9UJQ4-2, residues 1-616)
Technique: universal PBM
Molecule type: double-stranded DNA, one strand shown
Medium: in vitro
Concentration: not given
Setting: 8-mer, flanks averaged, mean of replicates
Reading: higher = stronger binding
Residues (chain): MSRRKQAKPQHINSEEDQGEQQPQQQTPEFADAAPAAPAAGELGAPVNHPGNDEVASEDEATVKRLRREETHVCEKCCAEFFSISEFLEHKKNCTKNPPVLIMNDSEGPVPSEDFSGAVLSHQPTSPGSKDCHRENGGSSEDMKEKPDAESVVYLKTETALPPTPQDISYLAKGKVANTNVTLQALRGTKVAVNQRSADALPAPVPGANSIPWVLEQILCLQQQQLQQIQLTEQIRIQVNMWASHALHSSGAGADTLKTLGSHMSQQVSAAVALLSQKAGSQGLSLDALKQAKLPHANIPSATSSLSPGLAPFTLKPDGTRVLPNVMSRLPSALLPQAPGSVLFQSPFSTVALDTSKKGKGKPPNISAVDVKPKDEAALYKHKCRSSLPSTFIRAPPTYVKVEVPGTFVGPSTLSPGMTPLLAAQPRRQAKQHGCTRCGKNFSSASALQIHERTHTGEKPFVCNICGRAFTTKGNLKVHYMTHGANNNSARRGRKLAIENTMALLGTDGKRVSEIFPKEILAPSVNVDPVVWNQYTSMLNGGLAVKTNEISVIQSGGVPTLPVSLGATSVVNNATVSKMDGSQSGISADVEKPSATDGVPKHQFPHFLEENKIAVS
Strand	E-score
GTGAGCGA	-0.129
CCTCAAGG	-0.167
GCCTAGTA	-0.017
TATTACCA	0.363
CATCTGAA	0.117
CGGGTGCC	-0.272
AAAACACT	0.182
GGTGTTTA	0.0246
ACCATGGC	-0.0453
AAAACGTG	0.152
GAGCCCAA	-0.122
CGCAAGCG	-0.193
CAAGTAAC	0.109
TCCCGCGA	-0.0572
CGGAACCA	-0.261
AAGTTGCC	-0.26
CCTTGGAA	-0.00894
ATCTGAGA	-0.0374
